Experimental data gathered from unrelated publications.
Every numbered part comes from another study and shows a few of its results, in no order.
UniProt P54753, sequence (whole entry, looked up): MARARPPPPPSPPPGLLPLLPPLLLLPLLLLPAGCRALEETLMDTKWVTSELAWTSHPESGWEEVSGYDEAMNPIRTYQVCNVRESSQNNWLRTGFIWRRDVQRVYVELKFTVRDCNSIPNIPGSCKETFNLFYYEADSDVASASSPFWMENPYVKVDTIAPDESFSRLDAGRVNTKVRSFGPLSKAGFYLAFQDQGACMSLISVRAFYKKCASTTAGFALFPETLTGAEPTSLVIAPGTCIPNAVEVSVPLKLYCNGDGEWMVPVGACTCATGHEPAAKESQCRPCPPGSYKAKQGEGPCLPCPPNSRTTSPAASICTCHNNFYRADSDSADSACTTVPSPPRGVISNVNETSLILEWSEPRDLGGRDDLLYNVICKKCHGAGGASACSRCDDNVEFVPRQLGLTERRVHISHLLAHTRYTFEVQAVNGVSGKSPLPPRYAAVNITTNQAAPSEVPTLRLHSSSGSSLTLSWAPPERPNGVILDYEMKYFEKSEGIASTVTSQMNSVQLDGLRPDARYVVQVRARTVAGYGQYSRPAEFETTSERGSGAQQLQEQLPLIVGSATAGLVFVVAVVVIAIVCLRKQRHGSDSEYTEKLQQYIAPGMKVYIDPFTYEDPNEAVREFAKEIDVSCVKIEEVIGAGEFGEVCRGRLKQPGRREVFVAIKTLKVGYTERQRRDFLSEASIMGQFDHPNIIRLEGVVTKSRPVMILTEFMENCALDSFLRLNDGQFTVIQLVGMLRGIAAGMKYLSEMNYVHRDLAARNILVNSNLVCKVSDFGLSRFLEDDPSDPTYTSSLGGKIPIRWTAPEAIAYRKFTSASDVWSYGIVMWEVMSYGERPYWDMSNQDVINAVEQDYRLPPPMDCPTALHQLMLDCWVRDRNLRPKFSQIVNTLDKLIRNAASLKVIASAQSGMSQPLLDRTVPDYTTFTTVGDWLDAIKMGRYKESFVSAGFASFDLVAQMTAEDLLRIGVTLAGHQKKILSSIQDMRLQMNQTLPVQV
UniProt Q99640, sequence (whole entry, looked up): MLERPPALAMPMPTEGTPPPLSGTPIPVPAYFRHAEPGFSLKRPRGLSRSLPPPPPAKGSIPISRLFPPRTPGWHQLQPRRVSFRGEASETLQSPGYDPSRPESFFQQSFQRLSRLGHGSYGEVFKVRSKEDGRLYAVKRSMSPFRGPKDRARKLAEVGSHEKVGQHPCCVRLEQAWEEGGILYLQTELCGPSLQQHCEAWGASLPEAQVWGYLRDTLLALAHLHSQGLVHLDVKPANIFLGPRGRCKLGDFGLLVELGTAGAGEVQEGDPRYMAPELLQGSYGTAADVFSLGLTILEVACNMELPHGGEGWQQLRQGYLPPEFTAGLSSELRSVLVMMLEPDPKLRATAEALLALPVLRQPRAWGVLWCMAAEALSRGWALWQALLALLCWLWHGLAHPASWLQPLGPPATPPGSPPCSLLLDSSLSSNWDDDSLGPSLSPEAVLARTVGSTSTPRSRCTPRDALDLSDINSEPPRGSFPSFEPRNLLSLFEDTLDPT
UniProt Q9UBF8, sequence (whole entry, looked up): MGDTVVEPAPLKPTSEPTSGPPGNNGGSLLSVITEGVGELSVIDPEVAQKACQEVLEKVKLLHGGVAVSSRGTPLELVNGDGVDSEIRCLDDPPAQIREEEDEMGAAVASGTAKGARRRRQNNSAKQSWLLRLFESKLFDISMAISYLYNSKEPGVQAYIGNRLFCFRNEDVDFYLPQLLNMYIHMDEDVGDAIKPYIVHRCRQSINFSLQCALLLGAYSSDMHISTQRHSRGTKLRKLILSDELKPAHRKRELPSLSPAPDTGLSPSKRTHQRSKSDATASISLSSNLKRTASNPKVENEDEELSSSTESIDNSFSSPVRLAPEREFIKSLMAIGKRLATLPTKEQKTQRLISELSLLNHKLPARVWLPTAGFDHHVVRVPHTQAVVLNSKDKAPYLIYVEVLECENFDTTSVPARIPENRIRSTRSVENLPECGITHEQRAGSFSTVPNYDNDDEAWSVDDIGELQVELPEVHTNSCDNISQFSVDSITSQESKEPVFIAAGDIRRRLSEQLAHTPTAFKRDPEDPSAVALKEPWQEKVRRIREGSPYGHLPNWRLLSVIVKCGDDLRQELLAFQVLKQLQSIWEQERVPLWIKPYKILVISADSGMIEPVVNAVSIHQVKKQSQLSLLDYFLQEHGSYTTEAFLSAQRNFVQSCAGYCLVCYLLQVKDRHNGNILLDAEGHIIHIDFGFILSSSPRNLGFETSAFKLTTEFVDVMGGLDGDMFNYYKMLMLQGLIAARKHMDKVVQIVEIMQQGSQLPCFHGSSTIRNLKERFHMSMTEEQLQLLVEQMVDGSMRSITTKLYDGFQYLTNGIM
UniProt Q13705, sequence (whole entry, looked up): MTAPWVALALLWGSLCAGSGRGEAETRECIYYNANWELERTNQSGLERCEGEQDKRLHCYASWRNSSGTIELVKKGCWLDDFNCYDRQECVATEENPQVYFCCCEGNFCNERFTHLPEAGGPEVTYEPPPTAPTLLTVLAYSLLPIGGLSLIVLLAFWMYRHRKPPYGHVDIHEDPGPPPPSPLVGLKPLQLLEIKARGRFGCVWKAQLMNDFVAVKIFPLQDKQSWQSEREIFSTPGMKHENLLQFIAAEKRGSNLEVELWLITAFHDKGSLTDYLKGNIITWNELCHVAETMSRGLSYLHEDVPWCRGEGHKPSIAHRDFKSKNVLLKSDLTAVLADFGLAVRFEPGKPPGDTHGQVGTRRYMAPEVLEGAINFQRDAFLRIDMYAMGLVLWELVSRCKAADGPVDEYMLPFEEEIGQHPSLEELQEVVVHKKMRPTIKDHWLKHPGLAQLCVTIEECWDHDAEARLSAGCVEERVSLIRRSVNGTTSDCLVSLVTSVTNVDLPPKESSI
UniProt Q13523, sequence (whole entry, looked up): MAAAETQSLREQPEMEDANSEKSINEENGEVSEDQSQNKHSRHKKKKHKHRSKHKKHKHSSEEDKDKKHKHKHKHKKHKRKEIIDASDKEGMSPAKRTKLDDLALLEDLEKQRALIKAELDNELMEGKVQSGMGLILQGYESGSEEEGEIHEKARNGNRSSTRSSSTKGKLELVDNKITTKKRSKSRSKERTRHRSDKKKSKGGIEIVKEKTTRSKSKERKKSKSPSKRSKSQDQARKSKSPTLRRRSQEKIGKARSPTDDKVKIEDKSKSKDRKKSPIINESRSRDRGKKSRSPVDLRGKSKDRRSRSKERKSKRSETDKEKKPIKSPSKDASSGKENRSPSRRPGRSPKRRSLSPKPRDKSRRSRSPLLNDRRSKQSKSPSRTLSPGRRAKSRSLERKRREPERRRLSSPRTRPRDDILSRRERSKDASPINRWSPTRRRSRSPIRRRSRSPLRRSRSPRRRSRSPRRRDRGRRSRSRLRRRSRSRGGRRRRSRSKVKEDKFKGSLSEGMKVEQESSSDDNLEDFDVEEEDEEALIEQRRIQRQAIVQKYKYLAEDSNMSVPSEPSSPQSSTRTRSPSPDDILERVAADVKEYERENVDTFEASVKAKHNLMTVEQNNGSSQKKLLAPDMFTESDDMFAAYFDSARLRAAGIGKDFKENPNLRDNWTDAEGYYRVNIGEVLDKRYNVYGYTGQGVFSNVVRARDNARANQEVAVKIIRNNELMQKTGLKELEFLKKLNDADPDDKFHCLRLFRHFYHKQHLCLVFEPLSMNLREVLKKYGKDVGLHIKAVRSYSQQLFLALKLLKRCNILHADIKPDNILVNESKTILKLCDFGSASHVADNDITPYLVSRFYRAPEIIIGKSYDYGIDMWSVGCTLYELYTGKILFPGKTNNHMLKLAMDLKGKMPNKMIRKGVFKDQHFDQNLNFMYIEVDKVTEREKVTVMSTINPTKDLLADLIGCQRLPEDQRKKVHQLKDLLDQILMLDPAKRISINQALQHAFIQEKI
UniProt Q9P286, sequence (whole entry, looked up): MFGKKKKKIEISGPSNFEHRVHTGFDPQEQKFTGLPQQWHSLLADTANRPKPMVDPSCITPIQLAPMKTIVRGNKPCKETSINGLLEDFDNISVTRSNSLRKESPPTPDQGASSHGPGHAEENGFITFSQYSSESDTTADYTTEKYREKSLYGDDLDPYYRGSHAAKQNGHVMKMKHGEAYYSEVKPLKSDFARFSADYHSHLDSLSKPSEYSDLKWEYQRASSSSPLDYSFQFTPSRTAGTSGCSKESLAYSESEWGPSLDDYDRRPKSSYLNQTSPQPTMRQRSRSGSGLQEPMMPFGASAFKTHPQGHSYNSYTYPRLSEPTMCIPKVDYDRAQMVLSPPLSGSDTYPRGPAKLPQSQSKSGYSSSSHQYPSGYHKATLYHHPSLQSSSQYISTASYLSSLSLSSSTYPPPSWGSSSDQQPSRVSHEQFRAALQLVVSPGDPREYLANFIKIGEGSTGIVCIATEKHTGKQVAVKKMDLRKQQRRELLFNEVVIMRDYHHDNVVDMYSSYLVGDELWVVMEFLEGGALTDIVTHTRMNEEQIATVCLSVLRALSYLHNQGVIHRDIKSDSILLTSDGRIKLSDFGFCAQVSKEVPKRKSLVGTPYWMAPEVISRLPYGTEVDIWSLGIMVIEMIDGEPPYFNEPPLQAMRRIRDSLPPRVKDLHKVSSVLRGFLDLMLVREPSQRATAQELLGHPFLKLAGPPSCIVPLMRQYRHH

Sample 1 — organism: Sarcocystis neurona; effect on: parasite growth; concentration: 10 µM; time: 96 h
Compound	inhibition [%]
CN(C)CCc1c[nH]c2ccc(Cn3cncn3)cc12	-16.7
CC12CC3CC(C)(C1)CC(N)(C3)C2	-11.8
Nc1ccn([C@@H]2CS[C@H](CO)O2)c(=O)n1	-9.7
CC1(C)O[C@@H]2[C@@H](CO[C@@]3(COS(N)(=O)=O)OC(C)(C)O[C@@H]23)O1	-12.5
CCOC(=O)N1CCC(=C2c3ccc(Cl)cc3CCc3cccnc32)CC1	-5.8
CN(C)CCCSc1ccccc1NC(=O)/C=C/c1ccccc1	-5.6
Cc1ccc(NC(=O)c2ccc(CN3CCN(C)CC3)cc2)cc1Nc1nccc(-c2cccnc2)n1	-16.6
CN1CCC(=C2c3ccccc3CC(=O)c3sccc32)CC1	-13.2
CN(C)CCC(c1ccc(Cl)cc1)c1ccccn1 (centres unmarked)	-9.5
O=C(O)c1cc(-c2ccc(F)cc2F)ccc1O	-13.9
CC(=O)CCCCn1c(=O)c2c(ncn2C)n(C)c1=O	-7.9
CCCN1C[C@H](CSC)C[C@@H]2c3cccc4[nH]cc(c34)C[C@H]21	-12.1

Sample 2 — effect on: enzyme activity; action: inhibitor; concentration: 0.5 µM; baseline: control
Target: Tyrosine-protein kinase HCK (HCK, Homo sapiens, UniProt P08631)
UniProt P08631, sequence (whole entry, looked up): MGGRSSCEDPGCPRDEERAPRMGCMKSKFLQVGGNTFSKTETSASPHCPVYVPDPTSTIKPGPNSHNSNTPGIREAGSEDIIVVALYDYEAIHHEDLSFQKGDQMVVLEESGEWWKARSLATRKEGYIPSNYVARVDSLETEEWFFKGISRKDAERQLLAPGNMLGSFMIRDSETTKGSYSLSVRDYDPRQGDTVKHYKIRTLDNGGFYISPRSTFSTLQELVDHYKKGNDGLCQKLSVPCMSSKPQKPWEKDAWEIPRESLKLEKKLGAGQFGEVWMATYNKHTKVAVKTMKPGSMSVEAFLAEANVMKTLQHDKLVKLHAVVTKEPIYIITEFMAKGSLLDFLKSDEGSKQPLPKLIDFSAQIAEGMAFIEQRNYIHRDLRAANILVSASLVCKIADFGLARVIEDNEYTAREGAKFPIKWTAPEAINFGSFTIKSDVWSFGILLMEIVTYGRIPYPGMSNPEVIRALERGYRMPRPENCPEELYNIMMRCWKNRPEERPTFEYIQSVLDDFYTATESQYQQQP
SMILES	remaining activity
O=c1cc(N2CCOCC2)oc2c(-c3ccccc3)cccc12	98.3%
O=C1NC(=O)c2c1c1c3ccccc3[nH]c1n1cncc21	94.6%
Cc1ccc(S(=O)(=O)/C=C/C#N)cc1	100%
c1ccc2c(-c3ccncc3)c[nH]c2c1	99.5%
COc1cccc(-c2cc(=O)c3ccccc3o2)c1N	91.6%
N#Cc1cnc2cnc(NCc3cccnc3)cc2c1Nc1ccc(F)c(Cl)c1	92.5%
CCCCc1c(-c2ccc(OC)cc2)[nH]c2nccnc12	94.4%
CN1CCN(c2ccc3nc(-c4c(N)c5c(F)cccc5[nH]c4=O)[nH]c3c2)CC1	29.9%
CN(C)S(=O)(=O)c1ccc2c(c1)/C(=C/c1cc3c([nH]1)CCCC3)C(=O)N2	31.6%
COc1ccc2c(c1)c(C1=C(c3c[nH]c4ccccc34)C(=O)NC1=O)cn2CCCN(C)C	111%

Sample 3 — effect on: cell-free assay; method: competition with immobilised ligand; concentration: 1 µM
SMILES: CCOCCn1cc(C(=O)Nc2ccc(-n3nc(-c4cccnc4)cc3C(F)(F)F)cn2)ccc1=O
target	remaining binding [%]
SRPK3 (Homo sapiens, UniProt Q9UPE1)	100
PAK5 (Homo sapiens, UniProt Q9P286)	98
STK17B (Homo sapiens, UniProt O94768)	81
EPHB3 (Homo sapiens, UniProt P54753)	89
PKMYT1 (Homo sapiens, UniProt Q99640)	100
CDK5 (Homo sapiens, UniProt Q00535)	100
ALK (Homo sapiens, UniProt Q9UM73)	79
PI4KB (Homo sapiens, UniProt Q9UBF8)	100
GRK2 (Homo sapiens, UniProt P25098)	75
ACVR2B (Homo sapiens, UniProt Q13705)	100
CDC42BPA (Homo sapiens, UniProt Q5VT25)	100
MAPK6 (Homo sapiens, UniProt Q16659)	100
FLT3 (Homo sapiens, UniProt P36888, R834Q)	100
PRPF4B (Homo sapiens, UniProt Q13523)	97
PRKACB (Homo sapiens, UniProt P22694)	100

Sample 4 — species: human; medium: microsomes or S9; concentration: 2 µM; time: 0.5 h
Compound	remaining compound [%]
CC(C)OCCCNC(=O)c1ccc(C(C)(C)C)cc1	23.1
CC(C)Nc1nc(NCCO)nc(N2CCC(N3CCOC(C)C3)CC2)n1 (centres unmarked)	95.4
O=C(c1ccc(Cn2ccn3nc4c(c3c2=O)CCCC4)cc1)N1CCN(c2ncccn2)CC1	3.22
C(=N\n1cnnc1)/c1cn(-c2cccs2)nc1-c1ccccc1	40.5
COc1nc(OCC(=O)c2ccccc2)nc(OC)c1Br	6.53
CC1(C(=O)NC2CCCC2)Cn2c(cc3ccsc32)C(=O)N1c1ccc2c(c1)OCCO2 (centres unmarked)	32.9
CN(C)C(=O)COCC(=O)Nc1ccc(C#N)cc1	86.4
Cc1ccccc1NC(=O)CC(=O)NS(=O)(=O)c1ccc(Cl)cc1	56.6
CS(=O)(=O)c1ccc(Nc2ccc3sc(C(=O)O)cc3c2)c(F)c1	95.6
O=C1C(N2CCC3(CCOCC3)C2)CCN1c1cccc(Cl)c1 (centres unmarked)	51.1
Cn1cc(Br)c(C(=O)NCCCN2CCCC2=O)n1	> 99
Cc1nc(COc2ccc(C(=O)Nc3ccc(S(=O)(=O)/N=c4/o[nH]c(C)c4C)cc3)cc2)cs1	52.4
O=C1Nc2ccccc2CCC1n1cnc2ccsc2c1=O (centres unmarked)	82.5

For quick reference, copied from above (sample 2):
SMILES	remaining activity
O=c1cc(N2CCOCC2)oc2c(-c3ccccc3)cccc12	98.3%
O=C1NC(=O)c2c1c1c3ccccc3[nH]c1n1cncc21	94.6%
Cc1ccc(S(=O)(=O)/C=C/C#N)cc1	100%
c1ccc2c(-c3ccncc3)c[nH]c2c1	99.5%
COc1cccc(-c2cc(=O)c3ccccc3o2)c1N	91.6%
N#Cc1cnc2cnc(NCc3cccnc3)cc2c1Nc1ccc(F)c(Cl)c1	92.5%
CCCCc1c(-c2ccc(OC)cc2)[nH]c2nccnc12	94.4%
CN1CCN(c2ccc3nc(-c4c(N)c5c(F)cccc5[nH]c4=O)[nH]c3c2)CC1	29.9%
